Measurements from different studies.
Compare with care: the assays were run in different laboratories.
Target: Carbonic anhydrase 2 (CA2, Homo sapiens, UniProt P00918)

SMILES	test	quantity	value
C[C@@]1(C(=O)O)[C@@H](O)CC[C@]2(C)c3cc4c(cc3CC[C@@H]12)[nH]c1ccc(S(=O)(=O)n2c3ccccc3c3cc5c(cc32)CC[C@H]2[C@](C)(C(=O)O)[C@@H](O)CC[C@]52C)cc14	enzyme activity, inhibitor, absorbance	IC50	1800 nM
CN(C)c1ccc2c(c1)C(=O)N(c1ccc(S(N)(=O)=O)cc1)C2=O	binding	Kd	170 nM
CCCCCCC1CCCC(=O)O1 (stereo not shown)	enzyme activity, inhibitor, stopped-flow	Ki	52.9 µM
Cc1c(Cl)c(=O)oc2cc(OCCCCCCSC#N)ccc12	enzyme activity, inhibitor, stopped-flow	Ki	> 100 µM
CC[C@H](C)[C@H](N)C(=O)NS(=O)(=O)CC(=O)N[C@@]1(C(=O)O)[C@@H](OC(=O)[C@@H](N)[C@@H](C)c2ccccc2)C[C@H]2C(C(N)=O)=CN(C)C[C@H]21	enzyme activity, inhibitor, absorbance	IC50	1400 nM
CCCCC1CCC(=O)O1 (stereo not shown)	enzyme activity, inhibitor, stopped-flow	Ki	78.3 µM
NS(=O)(=O)c1ccc(CCN2C(=O)c3ccc(N4CCOCC4)cc3C2=O)cc1	binding	Kd	250 nM
CCCCCCCCCCCC(=O)NC1CCOC1=O (stereo not shown)	enzyme activity, inhibitor, stopped-flow	Ki	66.7 µM
CN(C)c1ccc2c(c1)C(=O)N(Cc1ccc(S(N)(=O)=O)cc1)C2=O	binding	Kd	150 nM
N#CSCCCCCCOc1ccc2c(-c3ccccc3)cc(=O)oc2c1	enzyme activity, inhibitor, stopped-flow	Ki	> 100 µM
